Measurements gathered from unrelated publications.
Lines come from different studies, so protocols differ. ± marks the error that the study gave.
Sequence of UniProt P37136 (whole entry, looked up): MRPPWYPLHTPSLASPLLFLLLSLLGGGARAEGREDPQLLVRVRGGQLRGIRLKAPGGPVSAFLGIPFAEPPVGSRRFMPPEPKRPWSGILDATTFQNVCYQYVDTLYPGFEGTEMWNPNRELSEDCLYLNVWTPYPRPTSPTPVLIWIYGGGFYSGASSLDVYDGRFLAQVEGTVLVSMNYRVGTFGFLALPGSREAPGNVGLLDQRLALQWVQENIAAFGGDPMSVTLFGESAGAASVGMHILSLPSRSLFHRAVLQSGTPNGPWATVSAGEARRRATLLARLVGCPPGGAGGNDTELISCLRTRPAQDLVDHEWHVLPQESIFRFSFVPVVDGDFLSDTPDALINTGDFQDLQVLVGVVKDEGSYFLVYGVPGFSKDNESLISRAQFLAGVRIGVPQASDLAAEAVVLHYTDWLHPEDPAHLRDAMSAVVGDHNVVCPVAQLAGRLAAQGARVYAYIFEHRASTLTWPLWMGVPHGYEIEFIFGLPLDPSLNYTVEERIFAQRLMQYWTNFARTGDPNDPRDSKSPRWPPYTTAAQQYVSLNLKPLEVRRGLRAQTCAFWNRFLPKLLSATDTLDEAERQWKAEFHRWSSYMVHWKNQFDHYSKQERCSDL

phoxim-oxon  IC50 (Acetylcholinesterase (Ache, Rattus norvegicus, UniProt P37136); inhibitor; rat, postnatal day 1, rat brain homogenate; 15 min, 37 °C): 50 nM
deucravacitinib  acne incidence (human; 12 mg twice daily, multiple dose): 55.6%
chicoric acid  Papp basolateral to apical (IPEC-J2 monolayer; 500 µM, monolayer cultured 14 d): 3.82e-07 ± 6.1e-08 cm/s
maraviroc  Cmax (human, White, CYP3A5 poor metabolizers, plasma; 300 mg twice daily): 731 ng/mL
semaglutide  participants with adverse events (item: recovering or resolving; human, safety analysis set; concentration not given, 32 weeks, run-in): 5.2%
